Published values of several laboratories.
Lines come from different studies, so protocols differ. In brackets after ≈: the same amount, converted by molar mass.

CCCCCCCCCCCCOC(=O)c1ccc(O)cc1  mass balance (empty Transwells without cells; 5 µM, 60 min, apical to basolateral): 85%
Cc1cc(-c2ccc(C(=O)[C@@H]3CCCC[C@H]3C(=O)Nc3cnn4c3C(=O)NCC4)cc2)[nH]n1  cumulative recovery of radioactivity (human, faeces; oral, 200 mg, mean of six subjects; baseline: dose): 79.3%
CCCCCCCCCCO[Si](CCCCN(C)C)(OCCCCCCCCCC)OCCCCCCCCCC  zeta potential (pH 5.5, formulated): 3.4 mV
COC1CN([C@H]2CC[C@H]([C@@]3(C)Oc4c(Cl)cc(C(=O)NCc5c(SC)cc(C)[nH]c5=O)c(C)c4O3)CC2)C1  log2 fold change (RNA-seq, item: PLEK2; human, whole blood; dose not given, 24 h; baseline: pretreatment baseline): 2.37
COc1ccc(Nc2nc(Nc3ccc(OCCOCCOCC[18F])cc3)ncc2Br)cc1  uptake ratio (ICR mice, S180 tumour; intravenous, 370 kBq, 120 min; baseline: tumour over blood): 1.35
O=C1NC2(CC2)COc2ncc(F)cc2[C@H]2COCCN2c2ccn3ncc1c3n2  cells with structural aberrations (CHL cells; chromosomal aberration test; 75 µg/mL, 4 h, without S9 mix): 0.3%
C=C1CC[C@H](OCCCNC(=O)CCOCCOCCOCCOCCOCCOCCOCCOCCOCCOCCOCCOCCOCCOCCOCCOCCOCCOCCOCCOCCOCCOCCOCCOCCOCCOCCOCCOCCOCCOCCOCCOCCOCCOCCOCCOCCNC(=O)CCN2C(=O)CC(SC[C@H](NC(=O)[C@H](Cc3ccccc3)NC(=O)[C@H](CC(N)=O)NC(=O)[C@H](Cc3c[nH]cn3)NC(=O)[C@@H](NC(=O)[C@H](CC(=O)O)NC(=O)[C@H](CCC(N)=O)NC(=O)[C@H](CC(C)C)NC(=O)[C@H](CCCCN)NC(=O)[C@H](CCCCN)NC(=O)[C@H](CCCNC(=N)N)NC(=O)[C@H](CC(C)C)NC(=O)[C@H](Cc3c[nH]c4ccccc34)NC(=O)[C@H](CCC(=O)O)NC(=O)[C@@H](NC(=O)[C@H](CCCNC(=N)N)NC(=O)[C@H](CCC(=O)O)NC(=O)[C@H](CCSC)NC(=O)[C@H](CO)NC(=O)[C@H](CC(N)=O)NC(=O)[C@H](CC(C)C)NC(=O)[C@H](Cc3c[nH]cn3)NC(=O)[C@H](CCCCN)NC(=O)CNC(=O)[C@H](CC(C)C)NC(=O)[C@H](CC(N)=O)NC(=O)[C@H](Cc3c[nH]cn3)NC(=O)[C@H](CCSC)NC(=O)[C@H](CC(C)C)NC(=O)[C@H](CCC(N)=O)NC(=O)[C@@H](NC(=O)[C@H](CCC(=O)O)NC(=O)[C@H](CO)NC(=O)[C@@H](NC(=O)[C@@H](N)CO)C(C)C)[C@@H](C)CC)C(C)C)C(C)C)C(=O)O)C2=O)C/C1=C/C=C1\CCC[C@]2(C)[C@@H]([C@H](C)CCCC(C)(C)O)CC[C@@H]12 (stereo partly shown)  Tmax (male Sprague-Dawley rat, plasma; intravenous, 100 µg/kg, single dose): 8.4 min
CSCC[C@H](N)C(=O)N[C@@H](CO)C(=O)N[C@H](C(=O)N[C@@H](C)C(=O)NCC(=O)N[C@@H](CC(C)C)C(=O)N[C@@H](CCCCN)C(=O)N[C@@H](CCCCN)C(=O)N[C@@H](CCC(N)=O)C(=O)N[C@@H](Cc1c[nH]c2ccccc12)C(=O)N[C@@H](Cc1c[nH]cn1)C(=O)N[C@@H](CCCCN)C(=O)N[C@@H](C)C(=O)N[C@H](C(=O)N[C@@H](CCC(N)=O)C(=O)N[C@@H](CCCCN)C(=O)N[C@H](C(=O)N[C@@H](CO)C(=O)N[C@@H](CCC(=O)O)C(=O)N[C@@H](CCCCN)C(=O)N[C@H](C(=O)NCC(=O)NCC(=O)N[C@@H](C)C(N)=O)C(C)C)C(C)C)[C@@H](C)O)C(C)C  folding free energy (water): 6.71 kcal/mol
Cc1ncsc1-c1ccc(C(C)NC(=O)C2CC(O)CN2C(=O)C(NC(=O)CCCCCCCCCCN2CCCC(Nc3ncc(Cl)c(Nc4ccccc4S(=O)(=O)C(C)C)n3)C2)C(C)(C)C)cc1 (stereo not shown)  log2 fold change (22Rv1; RNA-seq, item: RANBP3L mRNA; concentration not given; baseline: DMSO): -1.92
CC(C)C[C@@H](NC(=O)[C@@H](CC(C)C)NC(=O)[C@@H](CC(=O)O)NC(=O)[C@@H](CC(C)C)NC(=O)[C@@H](CC(C)C)NC(=O)[C@@H](CC(C)C)NC(=O)[C@H](NC(=O)[C@@H](CC(=O)O)NC(=O)[C@H](NC(=O)[C@H]1CCCN1C(=O)[C@@H](Cc1ccccc1)NC(=O)[C@@H](CC(C)C)NC(=O)[C@@H](CC(C)C)NC(=O)[C@@H](CC(=O)O)NC(=O)[C@@H](CC(C)C)NC(=O)[C@@H](Cc1ccc(O)cc1)NC(=O)[C@@H](C)NC(=O)[C@@H](CCCNC(=N)N)NC(=O)[C@@H](Cc1c[nH]c2ccccc12)NC(=O)[C@H]1CCCN1C(=O)[C@@H](CC(N)=O)NC(=O)[C@@H](CCC(N)=O)NC(=O)[C@@H](CC(=O)O)NC(=O)[C@@H](CC(=O)O)NC(=O)[C@@H](CSC1CC(=O)N(CCNC(=O)CN2CCN(CC(=O)O)CCN(CC(=O)O)CC2)C1=O)NC(=O)[C@@H](C)N)[C@H](C)O)[C@H](C)O)C(=O)N[C@H](Cc1c[nH]c2ccccc12)C(=O)O (stereo partly shown) [fluorine-18 labelled]  tissue uptake (female C57BL/6 mice, B16-F10 melanoma, tumor; intravenous, 8 h): 10.5 %ID/g
CN1CC(COc2cccc3c(NCc4ccccc4)cc(Cl)nc23)OC1=O (stereo not shown)  tissue/plasma ratio (C57BL/6 mouse, heart; oral, 30 mg/kg, 0.5 h; baseline: heart over plasma): 0.36
C=C(NC(=O)c1csc(-c2nc3c(cc2O)-c2nc(cs2)C(=O)NC(C(C)O)C(=O)NC(=C(C)OC)c2nc(cs2)C(=O)NC2c4nc(cs4)C(=O)NC(COC(=O)c4c5c6c(cccc6n4O)COC(=O)C(OC4CC(C)(O)C(N(C)C)C(C)O4)C2OC5)c2nc-3cs2)n1)C(N)=O (stereo not shown)  half-life (cynomolgus monkey, female, plasma; intravenous infusion, 3 mg/kg multiple doses, day 7): 6.09 h
CC[C@H](C)[C@@H]1NC(=O)[C@H](Cc2ccc(O)cc2)NC(=O)CCCSC[C@@H](C(=O)N(CC(=O)N[C@@H](CC(C)C)C(=O)NCC(N)=O)Cc2ccc(F)cc2)NC(=O)[C@H](CC(N)=O)NC(=O)[C@H](CCC(N)=O)NC1=O  AEs leading to discontinuation (human; intranasal, 200 µg repeated doses): 0%
O=C(NNCc1ccccc1)C1(C(F)(F)F)CC1  solubility (PBS; pH 7.4, 25 °C, 2% DMSO): 460 µM (≈ 119 µg/mL)
C=CC(=O)Nc1cccc(Cn2ncc3cnc(Nc4cnn(CCOC)c4)nc32)c1  percent of control (ACVR2B human; binding, KINOMEscan; 100 nM; lower = stronger binding): 87%
COC(=O)C1=CNC=C(C(=O)OC)C1c1ccc(F)c(C(F)(F)F)c1  AUC(0-t) (male Sprague-Dawley rat, plasma; oral, 50 mg/kg): 3480 ng·h/mL
COc1cccc(OC)c1-c1cc(C(=O)NC2(C(=O)O)C3CC4CC(C3)CC2C4)nn1-c1ccc(C(=O)N(C)CCOCCOCCN(C)C(=O)[C@H](CCCCNC(=O)[C@H](CC(C)C)NC(=O)C2OC2C(=O)O)NC(=O)CN2CCN(CC(=O)[O-])CCN(CC(=O)[O-])CCN(CC(=O)[O-])CC2)cc1C(C)C.[177Lu+3] (mixture of isomers)  tumour-to-large intestine ratio (mouse HT-29 xenograft; 168 h, biodistribution; baseline: tumour over large intestine): 17.6
C/C(N)=N/C(=N\S(=O)(=O)c1ccc(C(F)(F)F)cc1)N1C[C@H](c2ccccc2)C(c2ccc(Cl)cc2)=N1  tissue/plasma ratio (C57BL/6 mouse, male, kidney; intravenous, 10 mg/kg; baseline: kidney over plasma): 6
CN1C(=O)[C@@H](Cc2ccc(O)c(I)c2)NC(=O)CNC(=O)[C@H](Cc2ccc3ccccc3c2)NC(=O)[C@H](CCCNC(=N)N)NC(=O)[C@H]1CCCNC(=O)c1ccc(CNC(=O)CN2CCN(CC(=O)O)CCN(CC(=O)O)CCN(CC(=O)O)CC2)cc1 [lutetium-177 labelled]  total absorbed dose (1; human, extrapolated from mouse, red marrow): 0.099 mGy/MBq
